# Experimental data from different studies.
# A part holds a random share of what one study measured. Changes are numbered by the printed parent chain.

# Set 1 — target: CCNF, cyclin fold, Cln2 fusion (human); technique: yeast growth competition, sequencing; matrix: yeast; setting: strong parent motif; relative to: not given; reading: higher = stronger binding
# Starting sequence: BORA docking peptide (human); SSLRRKLFLDGNG; partner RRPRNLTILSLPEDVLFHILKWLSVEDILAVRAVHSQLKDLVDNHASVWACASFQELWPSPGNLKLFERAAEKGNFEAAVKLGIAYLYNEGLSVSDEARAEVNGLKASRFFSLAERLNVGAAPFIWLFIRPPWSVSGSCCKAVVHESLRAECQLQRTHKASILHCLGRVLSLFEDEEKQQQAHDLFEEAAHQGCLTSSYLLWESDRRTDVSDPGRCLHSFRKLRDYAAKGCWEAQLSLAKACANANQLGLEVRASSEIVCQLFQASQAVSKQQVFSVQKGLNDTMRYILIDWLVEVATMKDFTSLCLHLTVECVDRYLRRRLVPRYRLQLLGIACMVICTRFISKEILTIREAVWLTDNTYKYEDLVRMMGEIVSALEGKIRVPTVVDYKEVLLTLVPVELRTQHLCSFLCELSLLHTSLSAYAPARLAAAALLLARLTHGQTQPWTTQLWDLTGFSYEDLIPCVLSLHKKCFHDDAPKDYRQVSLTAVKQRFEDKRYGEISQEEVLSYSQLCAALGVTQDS
Change,normalised enrichment score
SSLRRKLALDGNG [F8A],2.24
SSLRRKLFLDGNA [G13A],4.92
SSLRRKAFLDGNG [L7A],1.27
SSARRKLFLDGNG [L3A],8.26
SSLRRKLFADGNG [L9A],4.98
SSLRRKLLLDGNG [F8L],3.57
SSLRKKLFLDGNG [R5K],1.37
SSLRRKLFLAGNG [D10A],1.9
SSLRRKLFLDANG [G11A],4.98
SSLRAKAFLDGNG [R5A L7A],-0.227
SSLRKKLFFDGNG [R5K L9F],3.76

# Set 2 — technique: RNA Bind-n-Seq; molecule type: RNA; matrix: in vitro; concentration: 365 nM; relative to: no-protein control; reading: higher = stronger binding
# Target: RNA binding protein fox-1 homolog 2, RRM domain, GST-SBP tag (RBFOX2, Homo sapiens, UniProt O43251-10, residues 100-194)
# Setting: natural RNA segment, single round, ends assumed
# All sequences stand within: GGGAGUUCUACAGUCCGACGAUC … UGGAAUUCUCGGGUGCCAA
# Construct (chain): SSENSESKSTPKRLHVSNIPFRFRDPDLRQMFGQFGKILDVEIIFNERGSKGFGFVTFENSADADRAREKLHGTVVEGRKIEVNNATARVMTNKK
Sequence,RBNS enrichment (R)
UUUCCCCCAGAUGUUGGGUUGCAUGCCAAUAAACAUGUGGCUUCUUCUCAAAGCCUGUCUUCAAAAAAGCUGAGGCAAAAUGCUAAUAUUAAUUCAGCCUGGCCUCGAAA,2.17
AUCCCUUCCCAGCAAUGAUGACAGGAAAAUGGAAGUGGCAAGUUUUCCUUCUAGUAUCCGAAGAAUCUGAGCCUUCAAUGUUAAAAUUUUUCUUAAUUAAAAUGUGCUUU,0.495
GCCAAAAAAUAAUAAUGAUUUAAUUUAUGACCUUAUGUUGAGACUAAUUUCACAUCUUAUUUUGCAGUCAUUUACAGUGAAACAAUGUUCCAGCUAGCUUUAAAAGCUAU,0.895
CAGACUGUCUCCCAUCUGUUUCUCUCCCUCCUCCCAGAGCUGUGAGGAUGAAGGCAAGACUGAUUGUUCUGAGCUGUUACCUGCCAAGGCUUUUGGAUCAUUUCGGGCCA,0.601
CCACUGGAUUUUGGGGUUCCCAGCACCCCAUGUGGAUUUUGGGGGGUCCCUUUUGUGUCUCCCCCGCCAUUCAAGGACUCCUCUCUUUCUUCACCAAGAAGCACAGAAUU,0.242
AUUUGCUCAAUAAAAGUGGCCUUCCCUUGCCCUCCACACUAGGUCAUGUACAGUCUACCGCACCCUAGUGACAGUGUGGGUGUAUUUCUCUCAAACUCCCAUGGGAUCUA,0.47
UUUUCUCAUCUUAAUCUCUCCAUAAUUUCCCAUUUAAAGGUUUACAAAUAUGAGUGUGUGGAUGCUUUAAUUCAUUUAACCUCACUCCUCAAAGGUAACAUGCAACUUAG,0.511
GGGUUUGGGCCCUCAGAACCCUGCCCUGCAUCUUUGUACAGCAUCUGUGCCAUGGAUUUUGUUUUCCUUGGGGUAUUCUUGAUGUGAAGAUAAUUUGCAUACUCUAUUGU,1.24
GGCUUGUUUGUUCCCUACCAAUAUUCUGUUGCUGUUUGAAGUAGUGCCAGGGUCCCCUGGGAAGAUGCCCCCAAGACACCUGCCCCAAGUGGGUGGAUAUCUGCCUUCCU,0.407
ACACAAGCUAAUCUGUACCUUUAUAUAUAUGUGUGUGUACAUAUAUACAUGUAUAAACUGUAUAGUGUACAUGUUAAUGAUUUAUCAGUAUGCCCCGAAUUCCUAGUGCA,3.92
UUGUGGGCCCUGGAGGCUCCCUGCAUUGGAGGAAGGGCAGCUCAGCAGCUCAGGACCCUUUCCCUUAGGGGCUGCUUCCUCCCCUCAAAACCAGAACCUGGCAAGGGACU,0.419
GUACUGGGGAGGAGGAGAGGUGGGUGGCAGUAGAAGUUUGUGGGGAGAAGGUAACCUUUGCCUACAUAUGGCUGUCCUACAGGGUCUCCCUUGCCUGCAGUGGGAGAGUU,0.702

# Set 3 — technique: protein-binding microarray; molecule type: double-stranded DNA, one strand shown; matrix: in vitro; concentration: 940 nM top; setting: 60-bp whole probe; added: salmon DNA 0.4 mg/ml; relative to: random background probes; reading: higher = stronger binding; all sequences stand within: GCCTAGCAC … GTCTTGATTCGCTTGACGCTGCTG
# Target: Interferon regulatory factor 5, full length, phosphomimetic (IRF5, Homo sapiens, UniProt Q13568-2, residues 1-514, S451D/S453D/S456D/S462D)
Sequence,fitted relative affinity
TCAATTCTCAACCCTGGTACTGTGCTA,1.11 z-score
TTAGGAATGGGTATCGGTTAGTGCTAG,3.9 z-score
TTAGGTTGCGACTATCGGTTAGTGCTA,1 z-score
GACGGGTTCCTTTCCCTGACGTGCTAG,0.216 z-score
GACGATTTCAGTTTCGAGATGTGCTAG,4.48 z-score
GACGAACTGGGGATTGGAGACGTGCTA,0.295 z-score
GACGGTATCGACTATGGGGACGTGCTA,4.66 z-score
TCAATTTTCCCTCCCTAACTGTGCTAG,1.38 z-score
TGAGGTCTCCTTCTCCTTTAGTGCTAG,0.245 z-score
AGGGTGTTCTTTTCTGTTGTCGTGCTA,1.09 z-score
TCAATTCTTTTTATGCTACTGTGCTAG,1.13 z-score
TTAGGCATCGGTATCGGTTAGTGCTAG,4.3 z-score
GACGGTTTCGGTTTCGGGCCGTGCTAG,13.7 z-score
GCCGGACTGGACTTTCGGGACGTGCTA,0.131 z-score
CTGGAATCAATTTATTGACCGTGCTAG,-0.667 z-score
CTTTCTTTACTTCACTCTCTGTGCTAG,2.24 z-score
GACGATTTCAGACTGGAGTCGTGCTAG,-0.56 z-score

# Set 4 — technique: universal PBM; molecule type: double-stranded DNA, one strand shown; matrix: in vitro; concentration: not given; reading: higher = stronger binding
# Target: Sal-like protein 4, full length isoform B (SALL4, Homo sapiens, UniProt Q9UJQ4-2, residues 1-616)
# Setting: 8-mer, flanks averaged, mean of replicates
Sequence,E-score
TCAACACA,0.165
CGGTCTAG,-0.216
ATGCCGTC,-0.0674
CGACCTGA,-0.141
ATGGTGCA,0.119
CCTATGTC,-0.00916
CCTGCACG,-0.0853
TATGTAGA,0.212
AAGCAACC,-0.137
CGCATGGA,-0.219
CGCGAAAA,-0.0214
AAGTGTTC,0.00928
CTCGGCTC,-0.312
CCCACTTC,-0.073
ATTCGGCC,-0.213
CATGCATG,0.256
AACTGCTA,-0.0343
ATCCCCAA,0.0324
CCTCTGCA,-0.0863
GACTGGAA,-0.121
ACGGATCG,-0.154
CGCTACAG,-0.0808
ACGGCCGG,-0.208
ACTCACAT,0.0796
CCCGAACA,-0.101

# Set 5 — target: ATF5, bZIP domain (human); technique: DHFR protein complementation; matrix: yeast; relative to: wild-type JUN-FOS pair; reading: higher = stronger binding
# Setting: single substitutions, most at no-binding floor
# Starting sequence: JUN, bZIP domain (human); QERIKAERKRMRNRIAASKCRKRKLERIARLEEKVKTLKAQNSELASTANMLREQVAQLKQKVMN; partner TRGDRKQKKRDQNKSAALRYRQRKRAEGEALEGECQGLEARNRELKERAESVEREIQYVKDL
Change,binding fitness [natural log]
A29C,-1.34
A29R,-1.47
E44Q,-1.59
T48K,-1.35
E33W,-1.5
V56A,-1.32
S43T,-1.38
E54D,-1.1
E54P,-1.34
A57H,-1.54
R30P,-1.53
Q41V,-1.29
V35Y,-1.59
M51N,-1.04
T37G,-1.31
I28W,-1.23
E32I,-1.33

# Set 6 — technique: DHFR PCA, deep sequencing; matrix: yeast; added: (+)-ABA 0.39 µM; relative to: wild-type fitted maximum; reading: higher = stronger binding
# Target: ABI1, truncated, D143A, DHFR fusion (Arabidopsis thaliana)
# Setting: methotrexate growth selection, single substitutions
# Starting sequence: PYL1, truncated, DHFR fusion (Arabidopsis thaliana); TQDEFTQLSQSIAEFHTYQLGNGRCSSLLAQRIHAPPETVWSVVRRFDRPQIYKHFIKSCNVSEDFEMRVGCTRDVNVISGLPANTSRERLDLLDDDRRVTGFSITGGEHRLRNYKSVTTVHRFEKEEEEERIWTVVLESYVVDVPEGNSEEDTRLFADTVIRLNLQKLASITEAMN
Change,relative binding score [%]
D96Y,-11.9
P146A,27
E4R,6.31
L93F,16
V136Q,-4.57
E139P,12.5
F124E,13
C25I,51.6
Y53I,0.929
R45T,0.155
H110T,42.8
Y18T,4.91
S27I,-3.65
L20N,44.4
T120G,-6.43
S26G,33.4
E152G,4.66
T86N,56.1
K126M,55.3
D3C,26.7
H122A,1.1
F103E,-13.9
R99S,2
I33N,-6.33

# Excerpt of the above (set 6):
Change,relative binding score [%]
I33N,-6.33
E4R,6.31
H122A,1.1
L93F,16
S27I,-3.65
H110T,42.8
T86N,56.1
L20N,44.4
E139P,12.5
S26G,33.4
E152G,4.66
R99S,2
R45T,0.155
T120G,-6.43
Y53I,0.929
P146A,27
